Measured values collected from several papers.
Every numbered part comes from another study and shows a few of its results, in no order.

Sample 1
Target: Histone acetyltransferase KAT6A, winged helix 2, GST fusion (KAT6A, Homo sapiens, UniProt Q92794, residues 85-181)
Technique: protein binding microarray
Form: double-stranded DNA, one strand shown
Medium: in vitro
Concentration: not given
Setting: 8-mer, flanks averaged, mean of 2 arrays, mostly near background
Baseline: not given
Reading: higher = stronger binding
Target sequence (chain): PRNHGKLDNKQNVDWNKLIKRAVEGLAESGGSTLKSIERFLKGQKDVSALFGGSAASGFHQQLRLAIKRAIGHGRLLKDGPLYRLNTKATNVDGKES
Strand	E-score
ATCCCTAG	-0.134
ATGGACTC	-0.115
AAGTCTCC	-0.271
CCTTCTAG	-0.0918
CGGGATGC	0.0398
GGAACCTA	-0.0147
TCAACCGA	0.0904
AAAACAGA	0.011
GCACCGGC	0.087

Sample 2
Target: Interferon regulatory factor 5, full length, phosphomimetic (IRF5, Homo sapiens, UniProt Q13568-2, residues 1-514, K96S/S451D/S453D/S456D/S462D)
Technique: protein-binding microarray
Form: double-stranded DNA, one strand shown
Medium: in vitro
Concentration: 250 nM
Setting: 60-bp whole probe
With: salmon DNA 0.4 mg/ml
Baseline: random background probes
Reading: higher = stronger binding
Constant ends, left off below: GCCTAGCAC … GTGCTAGGTCTTGATTCGCTTGACGCTGCTG
Strand	log fluorescence [z-score]
TTAGGACTGGGTCACGGTTA	-0.213
GTAGGTCTCGGTCTCGGTTA	0.687
AACGGACTGGGACTGGGGAC	-0.528
GACGATATCAGACTCGAGAC	0.577
TCCCTTATAAATAGCACAGG	0.359
TTGTTTTTTTCTATATGCAA	2.28
GACGGTTTCCTACCGCTGAC	0.0434
TCACTTTTGGCTTTCCTACT	1.9
TTACGACTGCTACTGCTTTA	0.593
GACGATCTCGGTTTCGGGAC	3.24
AGTATGAGTTGCCCTTTCCC	-0.329

Sample 3
Target: Ras GTPase-activating protein-binding protein 1, full length (G3BP1, Homo sapiens, UniProt Q13283)
UniProt Q13283, sequence (whole entry, looked up): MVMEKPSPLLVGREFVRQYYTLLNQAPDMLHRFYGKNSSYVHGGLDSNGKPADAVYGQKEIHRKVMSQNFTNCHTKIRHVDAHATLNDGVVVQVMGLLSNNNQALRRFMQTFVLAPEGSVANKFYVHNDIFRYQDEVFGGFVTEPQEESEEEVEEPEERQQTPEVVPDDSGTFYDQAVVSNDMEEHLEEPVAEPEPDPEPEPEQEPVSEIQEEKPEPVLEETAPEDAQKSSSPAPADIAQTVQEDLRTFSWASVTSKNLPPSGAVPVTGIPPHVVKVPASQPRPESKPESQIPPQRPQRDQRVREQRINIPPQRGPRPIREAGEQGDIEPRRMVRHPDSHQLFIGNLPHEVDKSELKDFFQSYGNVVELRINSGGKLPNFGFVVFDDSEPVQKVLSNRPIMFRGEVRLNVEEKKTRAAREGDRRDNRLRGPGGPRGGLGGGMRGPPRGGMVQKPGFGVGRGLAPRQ
Technique: RNA Bind-n-Seq
Form: RNA
Medium: in vitro
Concentration: 200 nM
Setting: whole 134-nt RNA, ends assumed
With: 150 mM LiCl
Baseline: input library
Reading: higher = stronger binding
Library: 7-deaza-guanosine replaces G
Constant ends, left off below: GGGAGUUCUACAGUCCGACGAUC … UGGAAUUCUCGGGUGUCAAGG
Strand	log2 enrichment
CAAGUCCUGUGCUACACAUCGUAUGUACCGAAUCGGUUUGGUUUUUGGUUUUUGGAAAGUAUUAUGUUACGCCGUUCGGAUCUGCACUUC	-0.715
UGGGAGGUGGAUUUUGUUUAUUUUUUUAGCUCAUUUCCAGGGGUGGGAAUUUUUUUUUAAUAUGUGUCAUGAACAAAGUUGUUUUUGAAA	-0.188
GCAGGAAGUAAAAACAAAUGGAAAUGCUUCGGAUAGUGGCAGGGGUGGGGGUUGCUAAGGAAAGAAAGGGAUGGGAGUGGGUAAAGAGUU	0.0166
GUCCUGUGCUACACAUCGUAUGUACCGAAUCGGGGAAAAGGGAAAAGGGGAAAAGGGGAAAGUAUUAUGUUACGCCGUUCGGAUCUGCAC	0.356
GUCCUGUGCUACACAUCGUAUGUACCGAAUCGGGGAGGGGUUUGGGGAAAAAAAGGGGAAAGUAUUAUGUUACGCCGUUCGGAUCUGCAC	-0.652
CUGUGCUACACAUCGUAUGUACCGAAUCGGAAAAAAAGGGGAAAAAAAGGGGAAAAAAAGGAAAGUAUUAUGUUACGCCGUUCGGAUCUG	0.0464
UGGCUCUGGUGGCAUGCGGGGAGGAAGAGGUGGCCUCAUGGAUCGUGGUGGUCCCGGUGGAAUGUUCAGAGGUGGCCGUGGUGGAGACAG	0.0949
UGGGAGGUGGAUUUUGUUUAUUUUUUUGGCUCAUUUCCAGGGGUGGGAAUUUUUUUUUAAUAUGUGUCAUGAAUAAAGUUGUUUUUGAAA	0.4
CUCAAGUCCUGUGCUACACAUCGUAUGUACCGAAUCGGUUUGGAAAGGAAAGGAAAGUAUUAUGUUACGCCGUUCGGAUCUGCACUUCCA	0.211
UGGGAGGUGGAUUUUGUUUAUUUUUUUAGCUCAUUUCCAGGGGUAGGAAUUUUUUUUUAAUAUGUGUCAUGAAUAAAGUUGUUUUUGAAA	-0.948
CAAGUCCUGUGCUACACAUCGUAUGUACCGAAUCGGGGAAAGGGGUGGGGAGGGGAAAGUAUUAUGUUACGCCGUUCGGAUCUGCACUUC	0.143

Other studies, line by line
Molecule	target	assay	test system	conditions	scale	endpoint	result
PhoQ, residues 284 288 289 292 302 303 AGHLVA	PhoP, residues 12 14 15 18 19 TPLRH (Escherichia coli, UniProt P23836)	Sort-seq, measured: YFP reporter	E. coli	PhoQ-PhoP variant library, with: 10 µM Mg2+	baseline: high Mg2+ state, higher = stronger signaling	fold induction	0.537

Excerpt of the above (other studies, line by line):
Molecule	target	assay	test system	conditions	scale	endpoint	result
PhoQ, residues 284 288 289 292 302 303 AGHLVA	PhoP, residues 12 14 15 18 19 TPLRH (Escherichia coli, UniProt P23836)	Sort-seq, measured: YFP reporter	E. coli	PhoQ-PhoP variant library, with: 10 µM Mg2+	baseline: high Mg2+ state, higher = stronger signaling	fold induction	0.537
